Measured values collected from several papers.
Numbered parts are unrelated; each lists some results of a single study.
UniProt Q02763, sequence (whole entry, looked up): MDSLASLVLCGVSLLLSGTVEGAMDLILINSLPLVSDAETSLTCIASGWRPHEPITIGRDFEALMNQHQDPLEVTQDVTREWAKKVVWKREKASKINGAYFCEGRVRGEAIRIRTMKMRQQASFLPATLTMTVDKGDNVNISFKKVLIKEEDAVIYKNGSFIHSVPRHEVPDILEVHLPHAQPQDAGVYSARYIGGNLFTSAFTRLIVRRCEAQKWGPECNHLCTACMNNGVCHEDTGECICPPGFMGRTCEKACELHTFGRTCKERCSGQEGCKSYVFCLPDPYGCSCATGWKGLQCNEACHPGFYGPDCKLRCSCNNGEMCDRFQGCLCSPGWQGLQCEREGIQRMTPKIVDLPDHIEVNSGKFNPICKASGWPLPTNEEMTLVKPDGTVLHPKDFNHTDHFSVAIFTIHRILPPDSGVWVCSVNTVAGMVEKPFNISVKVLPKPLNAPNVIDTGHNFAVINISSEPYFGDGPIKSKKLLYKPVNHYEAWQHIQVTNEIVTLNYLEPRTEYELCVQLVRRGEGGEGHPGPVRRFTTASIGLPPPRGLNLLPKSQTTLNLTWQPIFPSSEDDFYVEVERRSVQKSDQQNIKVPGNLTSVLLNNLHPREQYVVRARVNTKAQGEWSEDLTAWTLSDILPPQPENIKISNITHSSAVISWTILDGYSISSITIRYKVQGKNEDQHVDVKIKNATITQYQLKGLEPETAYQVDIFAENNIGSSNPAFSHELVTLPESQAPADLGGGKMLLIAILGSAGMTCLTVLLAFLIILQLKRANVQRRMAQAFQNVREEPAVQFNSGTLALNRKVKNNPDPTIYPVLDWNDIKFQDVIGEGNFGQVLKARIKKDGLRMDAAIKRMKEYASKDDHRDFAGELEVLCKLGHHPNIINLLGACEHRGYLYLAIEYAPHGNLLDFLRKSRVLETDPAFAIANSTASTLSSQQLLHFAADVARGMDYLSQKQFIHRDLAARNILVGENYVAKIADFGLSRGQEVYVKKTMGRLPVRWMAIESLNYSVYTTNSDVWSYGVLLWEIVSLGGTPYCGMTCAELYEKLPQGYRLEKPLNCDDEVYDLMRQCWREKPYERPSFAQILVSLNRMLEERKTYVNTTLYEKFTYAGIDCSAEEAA
UniProt Q99683, sequence (whole entry, looked up): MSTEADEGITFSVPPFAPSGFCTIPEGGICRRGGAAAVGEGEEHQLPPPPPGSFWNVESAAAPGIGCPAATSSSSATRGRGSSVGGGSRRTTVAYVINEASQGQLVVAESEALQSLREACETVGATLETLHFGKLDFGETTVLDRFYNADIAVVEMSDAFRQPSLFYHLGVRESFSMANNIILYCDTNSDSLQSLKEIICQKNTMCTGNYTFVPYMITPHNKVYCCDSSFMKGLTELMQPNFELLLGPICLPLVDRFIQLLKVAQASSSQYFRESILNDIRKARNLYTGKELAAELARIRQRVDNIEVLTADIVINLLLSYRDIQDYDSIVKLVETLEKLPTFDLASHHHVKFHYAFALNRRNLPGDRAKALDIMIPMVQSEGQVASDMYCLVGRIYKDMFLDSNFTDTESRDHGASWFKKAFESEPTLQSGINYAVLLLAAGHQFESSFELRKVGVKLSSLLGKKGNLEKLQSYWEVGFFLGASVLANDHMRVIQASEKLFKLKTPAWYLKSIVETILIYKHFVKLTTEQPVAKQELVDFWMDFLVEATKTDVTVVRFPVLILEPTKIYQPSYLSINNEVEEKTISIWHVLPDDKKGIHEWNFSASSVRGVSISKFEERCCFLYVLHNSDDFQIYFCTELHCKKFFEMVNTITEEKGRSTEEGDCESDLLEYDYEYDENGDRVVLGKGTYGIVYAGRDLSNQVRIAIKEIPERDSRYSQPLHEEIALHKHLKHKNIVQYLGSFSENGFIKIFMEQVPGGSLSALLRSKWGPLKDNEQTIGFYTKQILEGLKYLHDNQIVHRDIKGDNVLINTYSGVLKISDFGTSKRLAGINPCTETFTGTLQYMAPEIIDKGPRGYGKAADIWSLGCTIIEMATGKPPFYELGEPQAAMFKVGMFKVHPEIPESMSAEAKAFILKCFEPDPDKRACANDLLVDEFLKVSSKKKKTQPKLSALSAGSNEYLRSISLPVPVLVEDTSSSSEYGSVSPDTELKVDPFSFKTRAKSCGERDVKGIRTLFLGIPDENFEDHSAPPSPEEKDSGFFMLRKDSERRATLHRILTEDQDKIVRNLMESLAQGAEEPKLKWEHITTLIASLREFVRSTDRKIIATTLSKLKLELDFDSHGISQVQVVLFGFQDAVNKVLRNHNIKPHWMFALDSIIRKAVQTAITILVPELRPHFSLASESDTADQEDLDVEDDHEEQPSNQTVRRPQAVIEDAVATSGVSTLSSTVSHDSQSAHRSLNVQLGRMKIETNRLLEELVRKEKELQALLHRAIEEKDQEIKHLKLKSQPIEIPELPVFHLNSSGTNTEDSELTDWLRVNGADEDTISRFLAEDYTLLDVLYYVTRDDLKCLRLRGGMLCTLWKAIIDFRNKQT
UniProt P27361, sequence (whole entry, looked up): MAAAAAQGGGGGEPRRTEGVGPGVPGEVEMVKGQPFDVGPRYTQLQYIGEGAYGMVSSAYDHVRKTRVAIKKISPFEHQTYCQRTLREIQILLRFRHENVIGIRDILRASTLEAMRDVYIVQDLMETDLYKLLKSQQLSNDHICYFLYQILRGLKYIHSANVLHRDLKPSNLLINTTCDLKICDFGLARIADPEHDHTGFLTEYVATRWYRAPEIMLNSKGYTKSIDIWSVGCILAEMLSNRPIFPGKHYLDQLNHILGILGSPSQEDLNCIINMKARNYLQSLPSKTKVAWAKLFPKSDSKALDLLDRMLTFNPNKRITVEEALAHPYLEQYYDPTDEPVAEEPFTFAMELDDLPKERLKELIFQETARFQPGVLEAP
UniProt Q15349, sequence (whole entry, looked up): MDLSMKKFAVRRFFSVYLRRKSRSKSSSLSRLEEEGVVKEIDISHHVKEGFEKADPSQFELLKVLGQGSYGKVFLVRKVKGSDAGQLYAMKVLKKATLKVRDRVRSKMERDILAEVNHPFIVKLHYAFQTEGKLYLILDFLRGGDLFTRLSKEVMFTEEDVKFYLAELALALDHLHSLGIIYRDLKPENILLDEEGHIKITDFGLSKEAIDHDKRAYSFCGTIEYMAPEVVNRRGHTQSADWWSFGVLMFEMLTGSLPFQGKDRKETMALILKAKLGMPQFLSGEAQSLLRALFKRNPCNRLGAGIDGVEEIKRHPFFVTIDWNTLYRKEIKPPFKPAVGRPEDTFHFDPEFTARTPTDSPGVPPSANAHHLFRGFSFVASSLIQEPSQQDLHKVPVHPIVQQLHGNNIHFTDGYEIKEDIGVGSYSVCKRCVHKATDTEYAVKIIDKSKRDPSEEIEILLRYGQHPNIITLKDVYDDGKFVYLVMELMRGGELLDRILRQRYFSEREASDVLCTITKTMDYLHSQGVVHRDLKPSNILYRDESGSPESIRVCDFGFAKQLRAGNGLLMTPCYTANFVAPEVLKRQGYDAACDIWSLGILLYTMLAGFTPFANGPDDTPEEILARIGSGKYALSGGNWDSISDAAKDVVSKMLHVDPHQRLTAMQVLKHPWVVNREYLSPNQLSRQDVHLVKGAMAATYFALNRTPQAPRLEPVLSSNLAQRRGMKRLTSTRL
UniProt Q8NFD2, sequence (whole entry, looked up): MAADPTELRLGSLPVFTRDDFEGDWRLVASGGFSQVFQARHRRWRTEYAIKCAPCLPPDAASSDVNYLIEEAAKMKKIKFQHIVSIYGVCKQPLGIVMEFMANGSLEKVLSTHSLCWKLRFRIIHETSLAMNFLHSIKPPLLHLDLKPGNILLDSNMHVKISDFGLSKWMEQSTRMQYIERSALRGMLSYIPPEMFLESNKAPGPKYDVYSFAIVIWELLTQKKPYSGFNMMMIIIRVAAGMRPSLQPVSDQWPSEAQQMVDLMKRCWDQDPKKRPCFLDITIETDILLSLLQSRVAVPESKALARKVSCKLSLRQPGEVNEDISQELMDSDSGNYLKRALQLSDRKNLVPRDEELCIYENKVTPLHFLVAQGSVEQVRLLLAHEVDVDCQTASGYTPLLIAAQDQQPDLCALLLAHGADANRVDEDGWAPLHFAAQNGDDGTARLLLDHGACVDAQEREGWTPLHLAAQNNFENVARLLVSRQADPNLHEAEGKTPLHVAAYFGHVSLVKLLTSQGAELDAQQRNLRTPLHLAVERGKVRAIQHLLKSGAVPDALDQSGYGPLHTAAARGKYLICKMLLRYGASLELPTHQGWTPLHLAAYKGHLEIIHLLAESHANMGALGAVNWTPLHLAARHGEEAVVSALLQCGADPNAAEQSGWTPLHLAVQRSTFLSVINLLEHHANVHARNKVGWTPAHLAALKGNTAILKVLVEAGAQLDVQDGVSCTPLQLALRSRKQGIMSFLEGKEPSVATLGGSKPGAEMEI
UniProt P36896, sequence (whole entry, looked up): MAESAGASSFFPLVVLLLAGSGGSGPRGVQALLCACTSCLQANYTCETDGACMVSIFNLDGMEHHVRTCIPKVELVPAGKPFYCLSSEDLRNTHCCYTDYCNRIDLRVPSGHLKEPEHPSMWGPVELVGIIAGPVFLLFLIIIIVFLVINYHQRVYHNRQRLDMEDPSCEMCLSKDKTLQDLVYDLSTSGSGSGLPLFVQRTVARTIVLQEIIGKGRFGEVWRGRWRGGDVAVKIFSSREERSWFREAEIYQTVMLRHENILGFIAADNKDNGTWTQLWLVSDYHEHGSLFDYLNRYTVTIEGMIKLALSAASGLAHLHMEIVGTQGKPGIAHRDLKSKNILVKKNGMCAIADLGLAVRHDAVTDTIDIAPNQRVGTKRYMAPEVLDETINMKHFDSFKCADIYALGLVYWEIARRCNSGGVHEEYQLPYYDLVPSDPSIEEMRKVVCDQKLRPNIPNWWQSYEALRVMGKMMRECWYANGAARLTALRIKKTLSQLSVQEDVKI

Block 1 — host: human; medium: microsomes or S9; tested at: 2 µM; time: 0.5 h
Compound	remaining compound [%]
CCn1c(=O)n(Cc2cc(-c3ccccc3)no2)c2ccccc21	18.1
Cc1cc(C)n(CC(O)CON=C2c3ccccc3-c3ccccc32)n1 (centres unmarked)	4.93
COCCNC(=O)c1ccc(-n2ncc(C(=O)OC)c2N)cc1	93.6
CO[C@@H]1CCOC[C@H]1NS(=O)(=O)c1c(Cl)nc2sccn12	41.9
O=C(c1c(OCC2CC2)cc(=O)n2c1CCOCC2)N1CCN(C2CCCCC2)CC1	59.4
O=C(Nc1ccccc1OC1CCCC1)c1c(O)cc(=O)n2c1CCC2	63.3

Block 2 — method: competition with immobilised ligand; tested at: 1 µM
Structure (SMILES): COc1ccc2c(O[C@@H]3C[C@H]4C(=O)N[C@]5(C(=O)O)CC5/C=C\CCCCC[C@H](NC(=O)OC5CCCC5)C(=O)N4C3)cc(-c3csc(NC(=O)C(C)C)n3)nc2c1C (some centres unmarked)
target	effect on	remaining binding [%]
ANKK1 (Homo sapiens, UniProt Q8NFD2)	cell-free assay	79
LIM domain kinase 1 (LIMK1, Homo sapiens, UniProt P53667)	cell-free assay	100
PTK2B (Homo sapiens, UniProt Q14289)	cell-free assay	100
SYK (Homo sapiens, UniProt P43405)	cell-free assay	100
MAP3K7 (Homo sapiens, UniProt O43318)	cell-free assay	67
MAPK3 (Homo sapiens, UniProt P27361)	cell-free assay	94
BMPR1A (Homo sapiens, UniProt P36894)	binding	100
MAP3K5 (Homo sapiens, UniProt Q99683)	cell-free assay	93
MAPK4 (Homo sapiens, UniProt P31152)	cell-free assay	93
MATK (Homo sapiens, UniProt P42679)	cell-free assay	50
Tyrosine-protein kinase ABL1, non-phosphorylated (ABL1, Homo sapiens, UniProt P00519, F317I)	cell-free assay	90
RIPK2 (Homo sapiens, UniProt O43353)	cell-free assay	100
BUB1 (Homo sapiens, UniProt O43683)	cell-free assay	96
PIP5K1A (Homo sapiens, UniProt Q99755)	cell-free assay	98
EPHB6 (Homo sapiens, UniProt O15197)	cell-free assay	89
SGK1 (Homo sapiens, UniProt O00141)	cell-free assay	81
MAP4K3 (Homo sapiens, UniProt Q8IVH8)	cell-free assay	100
DAPK1 (Homo sapiens, UniProt P53355)	cell-free assay	100
BRAF (Homo sapiens, UniProt P15056, V600E)	cell-free assay	77
PRKACA (Homo sapiens, UniProt P17612)	cell-free assay	97
DAPK2 (Homo sapiens, UniProt Q9UIK4)	cell-free assay	100
CDK7 (Homo sapiens, UniProt P50613)	cell-free assay	62
TEK (Homo sapiens, UniProt Q02763)	cell-free assay	100
CDK11B (Homo sapiens, UniProt P21127)	cell-free assay	99

Block 3 — effect on: enzyme activity; mode: inhibitor; tested at: 0.5 µM; relative to: control
Structure (SMILES): CN1CCN(c2ccc3nc(-c4c(N)c5c(F)cccc5[nH]c4=O)[nH]c3c2)CC1
target	remaining activity [%]
WEE1 (Homo sapiens, UniProt P30291)	92
RPS6KA2 (Homo sapiens, UniProt Q15349)	13.1
ABL2 (Homo sapiens, UniProt P42684)	24.3
TAOK2 (Homo sapiens, UniProt Q9UL54)	97.4
TBK1 (Homo sapiens, UniProt Q9UHD2)	38.5
MST1R (Homo sapiens, UniProt Q04912)	95.4
ULK2 (Homo sapiens, UniProt Q8IYT8)	45.7
NEK6 (Homo sapiens, UniProt Q9HC98)	84.5
ACVR1B (Homo sapiens, UniProt P36896)	98.8
MAP3K14 (Homo sapiens, UniProt Q99558)	110
MAP3K5 (Homo sapiens, UniProt Q99683)	98.4
MAP2K2 (Homo sapiens, UniProt P36507)	43
JAK3 (Homo sapiens, UniProt P52333)	83.9
EPHA3 (Homo sapiens, UniProt P29320)	88
TEK (Homo sapiens, UniProt Q02763)	81.3
ARAF (Homo sapiens, UniProt P10398)	123
MERTK (Homo sapiens, UniProt Q12866)	92
MAPKAPK2 (Homo sapiens, UniProt P49137)	96.9
MAPK3 (Homo sapiens, UniProt P27361)	99.6
FRK (Homo sapiens, UniProt P42685)	56
CSNK1G3 (Homo sapiens, UniProt Q9Y6M4)	94.6
ULK3 (Homo sapiens, UniProt Q6PHR2)	66
GSK3B (Homo sapiens, UniProt P49841)	98.6
NEK1 (Homo sapiens, UniProt Q96PY6)	64.3
CSNK1G2 (Homo sapiens, UniProt P78368)	91.4

Single results of other studies
SMILES	host	dose	notes	measurement	value
CC(C)n1cnc(-c2ccc(F)cc2)c1-c1ncc(C(=O)Nc2ccc(N3CCN(C)CC3)cc2)[nH]1	IPF patients	30 mg once daily	adverse event	Hypophosphataemia incidence	0%
